Assay results collected from several papers.
Compare with care: the assays were run in different laboratories. ± marks the error that the study gave.

| SMILES | test | system | conditions | measurement | value |
| --- | --- | --- | --- | --- | --- |
| Brc1ccc(Nc2nc(NN=Cc3c[nH]c4ccccc34)nc(N3CCOCC3)n2)cc1 |  | rat liver microsomes |  | CLint | 33.2 mL/min/g protein |
| CC[C@@H](C)[C@@H]1NC(=O)[C@@H](Cc2ccccc2)NC(=O)[C@@H]2CCCN2C(=O)[C@H]([C@H](C)CC)NC(=O)[C@@H](Cc2ccccc2)NC(=O)[C@@H]2CCCN2C1=O |  | human liver microsomes |  | CLint | 7.14 mL/min/g tissue |
| CCc1nc(-c2ccc(-c3ccc(CCC(N)(CO)CO)cc3)cc2)co1 | phosphorylation | rat whole blood |  | CLint | 0.309 µL/min |
| CCC/C(=C\C1=C(OC)C(=O)c2ccccc2C1=O)C(=O)NOC |  | mouse liver S9 | 1 µM, pH 7.4, phase I metabolism | CLint scaled | 20.2 mL/min/kg |
| Cc1ncccc1-c1ccc(C(=O)N2CC[C@H](C(=O)Nc3cc(F)c(F)c(F)c3)C2)[nH]1 |  | human liver microsomes | 1 µM | CLint | 5.7 µL/min/mg protein |
| CCC/C(=C\C1=C(F)C(=O)c2ccccc2C1=O)C(=O)N(CC)CC |  | human liver S9 | 1 µM, pH 7.4, metabolism | CLint scaled | 5.3 mL/min/kg |
| Cc1ncncc1-c1ccc(C(=O)N2CC[C@H](C(=O)Nc3cc(F)c(F)c(F)c3)C2)[nH]1 |  | human liver microsomes | 1 µM | CLint | 7.1 µL/min/mg protein |
| O=C(O)C1OC(Oc2cccc(-c3nc(N4CCOCC4)c4oc5ncccc5c4n3)c2)C(O)C(O)C1O (centres unmarked) | glucuronide formation | minipig liver microsomes | pH 7.4 | CLint | 145 ± 18.4 µL/min/mg |

A few entries again:
| SMILES | test | system | conditions | measurement | value |
| --- | --- | --- | --- | --- | --- |
| O=C(O)C1OC(Oc2cccc(-c3nc(N4CCOCC4)c4oc5ncccc5c4n3)c2)C(O)C(O)C1O (centres unmarked) | glucuronide formation | minipig liver microsomes | pH 7.4 | CLint | 145 ± 18.4 µL/min/mg |
